{"data": "Values quoted from earlier work as cited in several papers", "note": "Lines come from different studies, so protocols differ. ± marks the error that the study gave."}
{"Molecule": "C/C=C1\\NC(=O)[C@H]2CSSCC/C=C/[C@H](CC(=O)N[C@H](C(C)C)C(=O)N2)OC(=O)[C@H](C(C)C)NC1=O", "cell line": "malignant rhabdoid tumour cells", "assay": "histone acetylation and cell death", "setting": "72 h", "measurement": "effective concentration", "result": "0.7 to 3.7 nM"}
{"Molecule": "mithramycin", "cell line": "NCI-60 cell lines", "measurement": "GI50", "result": "0.018 µM"}
{"Molecule": "Z-VAD", "cell line": "primary mesencephalic dopaminergic neurons", "setting": "protection of over 90% neurons, added: MPP+", "measurement": "concentration for neuroprotection", "result": "> 100 µM"}
{"Molecule": "COc1cc(CCN)c2c(c1OC)SSSSS2", "cell line": "HCT-116", "assay": "cell growth", "setting": "previously reported", "measurement": "IC90", "result": "0.15 µM"}
{"Molecule": "[K+]", "cell line": "turkey erythrocytes", "assay": "influx rate", "measurement": "EC50", "result": "~500 µM"}
{"Molecule": "C[C@H]1O[C@@H](O[C@H]2[C@@H](O)C[C@H](O[C@H]3[C@@H](O)C[C@H](O[C@H]4CC[C@@]5(C)[C@H](CC[C@@H]6[C@@H]5C[C@@H](O)[C@]5(C)[C@@H](C7=CC(=O)OC7)CC[C@]65O)C4)O[C@@H]3C)O[C@@H]2C)C[C@H](O)[C@@H]1O", "cell line": "MDA-MB-231", "assay": "cell viability", "setting": "72 h", "measurement": "IC50", "result": "0.31 ± 0.03 µM"}
{"Molecule": "C=C(C)[C@@H]1CCC(C)=C[C@H]1c1c(O)cc(CC2CN(C(C)=O)C2)cc1O", "cell line": "hippocampal cultures", "assay": "neuroprotection", "setting": "added: ammonium acetate", "measurement": "EC50", "result": "0.05 µM"}
{"Molecule": "CO[C@@H]1CN(C)C(=O)c2ccc(NC(=O)c3ccc(-c4ccccc4)cc3)cc2OC[C@H](C)NC[C@@H]1C", "cell line": "HEK293, HepG2, A549", "assay": "cell proliferation, inhibitor", "measurement": "AC50", "result": "5 to 18 µM"}
{"Molecule": "CO[C@H]1C[C@H](O[C@H]2CC[C@@]3(C)[C@@H](C2)C[C@@H]2O[C@]24[C@@H]3[C@H](O)C(=O)[C@]2(C)[C@@H](C3=CC(=O)OC3)CC[C@]42O)O[C@@H](C)[C@@H]1O", "cell line": "OVCAR-3", "assay": "cell viability", "setting": "72 h", "measurement": "IC50", "result": "0.14 ± 0.05 µM"}
{"Molecule": "CCCCC/C=C\\C/C=C\\C/C=C\\C/C=C\\CCCC(=O)OC(CO)CO", "cell line": "cultured hippocampal neurons", "assay": "neuronal spiking, inhibitor", "measurement": "EC50", "result": "0.063 µM"}
{"Molecule": "C/C(=C\\CCP(=O)(O)O)CO", "cell line": "Vgamma9Vdelta2 T cells in PBMC", "assay": "cell proliferation, activator", "setting": "3 days", "measurement": "EC50", "result": "4 µM"}
{"Molecule": "YLSGADLNL", "cell line": "CAP1-specific CD8+ T-cell lines", "system": "peptide", "setting": "concentration not given", "how to read": "baseline: native CAP1 peptide, fold enhancement", "measurement": "T-cell recognition", "result": "> 100 fold"}
{"note": "For quick reference, copied from above:"}
{"Molecule": "Z-VAD", "cell line": "primary mesencephalic dopaminergic neurons", "setting": "protection of over 90% neurons, added: MPP+", "measurement": "concentration for neuroprotection", "result": "> 100 µM"}
